Assay results gathered from unrelated publications.
Each line is one published result; not all experiments were run side by side.
Organism: Staphylococcus aureus

SMILES | assay | system | setting | MIC
C=C(NC(=O)c1csc(-c2nc3c(cc2O)-c2nc(cs2)C(=O)NC(C(C)O)C(=O)NC(=C(C)OC)c2nc(cs2)C(=O)NC2c4nc(cs4)C(=O)NC(COC(=O)c4c5c6c(cccc6n4O)COC(=O)C(OC4CC(C)(O)C(N(C)C)C(C)O4)C2OC5)c2nc-3cs2)n1)C(N)=O (stereo not shown) | – | MRSA strain 1, vancomycin-induced | 20 generations | 0.0312 µg/mL
O=c1n(CCNCCOS(=O)(=O)c2ccccc2)c(=O)n(S(=O)(=O)c2ccccc2)c(=O)n1S(=O)(=O)c1ccccc1 | microbial growth, broth dilution | – | – | 4 µg/mL
CC[C@H](C)[C@H](NC(=O)[C@@H](CCCNC(=N)N)NC(=O)[C@H](CCCNC(=N)N)NC(=O)[C@H](C)NC(=O)[C@H](Cc1c[nH]c2ccccc12)NC(=O)[C@H](CCCNC(=N)N)NC(=O)[C@@H]1CCCN1C(=O)[C@H](CCCNC(=N)N)NC(=O)[C@@H]1CCCN1C(=O)[C@H](CC(C)C)NC(=O)[C@H](Cc1ccc(O)cc1)NC(=O)[C@@H]1CCCN1C(=O)[C@@H]1CCCN1C(=O)[C@H](CCCCN)NC(=O)[C@H](CC(=O)O)NC(=O)[C@@H](N)C(C)C)C(=O)N[C@@H](Cc1ccc(O)cc1)C(=O)N[C@@H](CC(N)=O)C(=O)N[C@H](CCCNC(=N)N)C(N)=O | broth microdilution | DSM 6247 | 18 h, 37 °C, 25% MHB2 | 128 µg/mL
CC[C@H](C)[C@H](NC(=O)[C@@H]1CCCN1C(=O)CNC(=O)[C@H](CC(C)C)NC(=O)[C@H](CCCCN)NC(=O)[C@H](CCCNC(=N)N)NC(=O)[C@H](Cc1c[nH]c2ccccc12)NC(=O)[C@H](C)NC(=O)[C@H](CC(N)=O)NC(=O)[C@H](CCCCN)NC(=O)[C@H](CC(C)C)NC(=O)[C@H](CCCCN)NC(=O)[C@H](CC(N)=O)NC(=O)[C@H](CCCNC(=N)N)NC(=O)[C@H](C)NC(=O)[C@H](CCCNC(=N)N)NC(=O)[C@H](CCCNC(=N)N)NC(=O)[C@H](Cc1ccccc1)NC(=O)[C@H](Cc1c[nH]c2ccccc12)NC(=O)CN)C(=O)N[C@H](C(=O)NCC(=O)N1CCC[C@H]1C(=O)N[C@@H](CC(C)C)C(=O)N[C@@H](CC(C)C)C(=O)N[C@H](C(=O)N[C@@H](CCCNC(=N)N)C(=O)O)[C@@H](C)O)C(C)C | broth microdilution | ATCC 25923 | – | 0.94 log10 µg/mL
CN[C@H](CC(C)C)C(=O)N[C@H]1C(=O)N[C@@H](CC(N)=O)C(=O)N[C@H]2C(=O)N[C@H]3C(=O)N[C@H](C(=O)N[C@H](C(=O)O)c4cc(O)cc(O)c4-c4cc3ccc4O)[C@H](O)c3ccc(c(Cl)c3)Oc3cc2cc(c3O[C@@H]2O[C@H](CO)[C@@H](O)[C@H](O)[C@H]2O[C@H]2C[C@](C)(NCc3ccc(OCc4cn(CCCCC(=O)N[C@H](C(=O)N[C@@H](CCN)C(=O)N[C@H]5CCNC(=O)[C@H]([C@@H](C)O)NC(=O)[C@H](CCN)NC(=O)[C@H](CCN)NC(=O)[C@H](CC(C)C)NC(=O)[C@@H](CC(C)C)NC(=O)[C@H](CCN)NC5=O)[C@@H](C)O)nn4)c(OC)c3)[C@H](O)[C@H](C)O2)Oc2ccc(cc2Cl)[C@H]1O | broth microdilution | VISA LIM-2, tryptic soy broth | 20 to 24 h, 37 °C, 0.002% polysorbate 80 | 4 µg/mL
CC[C@H](C)[C@H](NC(=O)[C@@H](CCCNC(=N)N)NC(=O)[C@H](CCCNC(=N)N)NC(=O)[C@@H]1CCCN1C(=O)[C@@H]1CCCN1C(=O)[C@H](CCCNC(=N)N)NC(=O)[C@@H]1CCCN1C(=O)[C@H](CCCNC(=N)N)NC(=O)[C@@H]1CCCN1C(=O)[C@H](CC(C)C)NC(=O)[C@H](Cc1ccc(O)cc1)NC(=O)[C@@H]1CCCN1C(=O)[C@H](Cc1ccccc1)NC(=O)[C@H](CCCCN)NC(=O)[C@H](CC(=O)O)NC(=O)[C@@H](N)C(C)C)C(=O)N[C@@H](Cc1ccc(O)cc1)C(=O)N[C@@H](CC(N)=O)C(=O)N[C@H](CCCNC(=N)N)C(N)=O | broth microdilution | DSM 6247 | 18 h, 37 °C, 25% MHB2 | > 128 µg/mL
N=C(N)NCCC[C@@H]1NC(=O)[C@H](CCCNC(=N)N)NC(=O)[C@@H](C(c2ccccc2)c2ccccc2)NC(=O)[C@H](Cc2c[nH]c3ccccc23)NC(=O)[C@@H](C(c2ccccc2)c2ccccc2)NC(=O)[C@@H](CCCNC(=N)N)NC(=O)[C@@H](CCCNC(=N)N)NC1=O | – | 1193193, MRSA | – | 4 µg/mL
CN[C@H](CC(C)C)C(=O)N[C@H]1C(=O)N[C@@H](CC(N)=O)C(=O)N[C@H]2C(=O)N[C@H]3C(=O)N[C@H](C(=O)N[C@H](C(=O)NCc4cn(CCCCC(=O)N[C@H](C(=O)N[C@@H](CCN)C(=O)N[C@H]5CCNC(=O)[C@H]([C@@H](C)O)NC(=O)[C@H](CCN)NC(=O)[C@H](CCN)NC(=O)[C@H](CC(C)C)NC(=O)[C@@H](CC(C)C)NC(=O)[C@H](CCN)NC5=O)[C@@H](C)O)nn4)c4cc(O)cc(O)c4-c4cc3ccc4O)[C@H](O)c3ccc(c(Cl)c3)Oc3cc2cc(c3O[C@@H]2O[C@H](CO)[C@@H](O)[C@H](O)[C@H]2O[C@H]2C[C@](C)(N)[C@H](O)[C@H](C)O2)Oc2ccc(cc2Cl)[C@H]1O | broth microdilution | VISA LIM-2, tryptic soy broth | 20 to 24 h, 37 °C, 0.002% polysorbate 80 | 2 µg/mL
Cc1ccc2[nH]c3c(c2c1)CCCC3NCCc1ccc(O)cc1 (stereo not shown) | broth microdilution | SG511 | – | 16 µg/mL
CC[C@H](C)[C@H](N)C(=O)N[C@H](C)C(=O)N[C@@H](CC(C)C)C(=O)N[C@H](CCC(=O)O)C(=O)N[C@H](C(=O)N[C@H]1CCCCNC(=O)[C@H](CC(N)=O)NC(=O)[C@@H](CC(=O)O)NC(=O)[C@H](Cc2c[nH]cn2)NC(=O)[C@@H](Cc2ccccc2)NC(=O)[C@H]([C@@H](C)CC)NC(=O)[C@@H](CCCN)NC1=O)[C@@H](C)CC | – | USA300 methicillin-resistant | 18 h, 37 °C, 0.3 mM ZnSO4 LB | > 64 µg/mL
CC(C)C[C@@H]1NC(=O)[C@H](CCCCN)NC(=O)CNC(=O)[C@H]2CCCN2C(=O)[C@H](CCCCN)NC(=O)[C@H](CC(C)C)NC(=O)[C@H](CCCCN)NC(=O)[C@H](CC(C)C)NC(=O)[C@H](CCCCN)NC(=O)C(N)CCC=CCCCC(C(N)=O)NC(=O)[C@H](CCCCN)NC(=O)[C@H](CC(C)C)NC(=O)[C@H](CCCCN)NC1=O (stereo partly shown) | broth microdilution | ATCC 29737, Mueller-Hinton broth | 18 h, 37 °C | 64 µM
CC[C@H](C)[C@H](NC(=O)[C@H](CCCNC(=N)N)NC(=O)[C@H](CCC(N)=O)NC(=O)[C@@H](NC(=O)[C@@H](NC(=O)[C@H](CCCNC(=N)N)NC(=O)[C@H](CCCCN)NC(=O)[C@H](Cc1ccccc1)NC(=O)CN)[C@@H](C)CC)C(C)C)C(=O)N[C@@H](CCCCN)C(=O)N[C@@H](CC(=O)O)C(=O)N[C@@H](Cc1ccccc1)C(=O)N[C@@H](CC(C)C)C(=O)N[C@@H](CCCNC(=N)N)C(=O)N[C@@H](CC(N)=O)C(=O)N[C@@H](CC(C)C)C(=O)N[C@H](C(N)=O)C(C)C | – | USA300 LAC | – | 2.5 µM
CC(=O)N[C@@H](CC(C)C)C(=O)N[C@H]1CSSC[C@@H](C(=O)N2CCC[C@H]2C(N)=O)NC(=O)[C@H]([C@@H](C)O)NC(=O)[C@H](C(C)C)NC(=O)[C@H]([C@@H](C)O)NC(=O)CNC(=O)[C@H](CC(C)C)NC(=O)[C@H](Cc2ccccc2)NC(=O)[C@H](Cc2ccc(O)cc2)NC(=O)[C@H](CC(C)C)NC(=O)[C@H](CCCCN)NC(=O)[C@H](Cc2ccccc2)NC(=O)[C@H](CCCNC(=N)N)NC(=O)[C@H](CCCCN)NC(=O)[C@H](CC(C)C)NC(=O)[C@H](CCCCN)NC(=O)[C@@H]2CCCN2C(=O)[C@H](CCCCN)NC(=O)[C@H](C(C)C)NC(=O)[C@H](CC(N)=O)NC(=O)[C@H](Cc2ccc(O)cc2)NC(=O)[C@H]([C@@H](C)O)NC1=O | broth dilution | laboratory strain | 24 h | 2.5 to 5 µM
CN[C@@H]1[C@H](O)[C@H](NC)[C@H]2O[C@]3(O)[C@H](O[C@@H]2[C@H]1O)O[C@H](C)C[C@H]3NC(=O)Cc1ccc(F)cn1 | microbial growth, broth dilution | 8325 | – | 25 µg/mL
CC(C)C[C@@H](NC(=O)[C@@H](CCCNC(=N)N)NC(=O)[C@H](N)CCCNC(=N)N)C(=O)N[C@H](CC(C)C)C(=O)N[C@H](CCCNC(=N)N)C(=O)N[C@H](CCCCN)C(=O)N[C@H](CC(C)C)C(=O)N[C@H](CCCCN)C(=O)NCC(=O)N[C@H](CCCCN)C(=O)N[C@H](CCCCN)C(=O)N[C@H](CC(C)C)C(=O)N[C@H](Cc1ccc(O)cc1)C(=O)N[C@H](CC(C)C)C(=O)N[C@H](Cc1ccc(O)cc1)C(=O)N[C@H](Cc1ccccc1)C(=O)N[C@H](CCCCN)C(=O)N[C@H](CC(C)C)C(=O)N[C@H](CCC(N)=O)C(=O)N[C@H](CC(C)C)C(=O)N[C@H](CC(C)C)C(=O)N[C@H](CCCCN)C(=O)N[C@H](CCCCN)C(N)=O | – | KCTC 1621, Mueller-Hinton broth | with: 4.5 mM KCl | 16 µM
CC[C@H](C)[C@@H]1NC(=O)[C@H](CO)NC(=O)C(C)(CCCCN)NC(=O)[C@@H]2CSSC[C@@H](C(=O)N[C@@H](Cc3ccc(O)cc3)C(N)=O)NC(=O)[C@H](CCCCN)NC(=O)[C@@H]3CSSC[C@H](NC(=O)[C@H](CCCNC(=N)N)NC(=O)C(C)(CC(C)C)NC(=O)[C@H](CC(=O)O)NC(=O)[C@H](CC(=O)O)NC(=O)[C@H](CCC(=O)O)NC(=O)[C@H](CC(N)=O)NC(=O)[C@H](Cc4c[nH]c5ccccc45)NC(=O)[C@@H]4CCCN4C(=O)CNC(=O)[C@H](CC(N)=O)NC(=O)[C@@H](NC(=O)CNC(=O)[C@H](Cc4ccccc4)NC(=O)CN)CSSC[C@H](NC(=O)[C@H](Cc4ccc(O)cc4)NC(=O)CNC(=O)CNC(=O)[C@H](CCCCN)NC(=O)[C@H](Cc4ccc(O)cc4)NC(=O)CNC(=O)[C@H](CCCCN)NC1=O)C(=O)N[C@@H](C)C(=O)N[C@@H](CCCCN)C(=O)NCC(=O)NCC(=O)N[C@@H](Cc1ccccc1)C(=O)N[C@@H](C(C)C)C(=O)N3)C(=O)N[C@@H](Cc1c[nH]cn1)C(=O)NC(C)(C)C(=O)N[C@@H](Cc1c[nH]cn1)C(=O)N2 (stereo partly shown) | – | 467, methicillin-resistant mecA, cation-adjusted Mueller Hinton broth | 18 h, 37 °C | 2 µM
CN[C@H](CC(C)C)C(=O)N[C@H]1C(=O)N[C@@H](CC(N)=O)C(=O)N[C@H]2C(=O)N[C@H]3C(=O)N[C@H](C(=O)N[C@H](C(=O)O)c4cc(O)cc(O)c4-c4cc3ccc4O)[C@H](O)c3ccc(c(Cl)c3)Oc3cc2cc(c3O[C@@H]2O[C@H](CO)[C@@H](O)[C@H](O)[C@H]2O[C@H]2C[C@](C)(NCc3ccc(OCc4cn(CC(=O)N[C@H](C(=O)N[C@@H](CCN)C(=O)N[C@H]5CCNC(=O)[C@H]([C@@H](C)O)NC(=O)[C@H](CCN)NC(=O)[C@H](CCN)NC(=O)[C@H](CC(C)C)NC(=O)[C@@H](CC(C)C)NC(=O)[C@H](CCN)NC5=O)[C@@H](C)O)nn4)c(OC)c3)[C@H](O)[C@H](C)O2)Oc2ccc(cc2Cl)[C@H]1O | broth microdilution | VISA NRS402, tryptic soy broth | 20 to 24 h, 37 °C, 0.002% polysorbate 80 | 8 µg/mL
c1ccc(CN2CCOCCOCCN(CCCCCCCCCCCCN3CCOCCOCCN(CCCCCCCCCCCCN4CCOCCOCCN(Cc5ccccc5)CCOCCOCC4)CCOCCOCC3)CCOCCOCC2)cc1 | – | 1199B (NorA overexpressing) | – | 1 µM
COc1ccc2ccc(O)c(/C=N/[C@H]3CCCC[C@H]3/N=C/c3cccc(C)c3O)c2c1 | bacterial growth, broth microdilution | vancomycin-intermediate | – | > 40 µM
